Assay results from different studies.
Numbered parts are unrelated; each lists some results of a single study.

Block 1
Target: Histone acetyltransferase KAT6A, winged helix 1, GST fusion (KAT6A, Homo sapiens, UniProt Q92794, residues 1-85)
Method: protein binding microarray
Form: double-stranded DNA, one strand shown
Medium: in vitro
Tested at: not given
Notes: 8-mer, flanks averaged, mean of 2 arrays, mostly near background
Relative to: not given
Direction: higher = stronger binding
Measurement: E-score
Residues (chain): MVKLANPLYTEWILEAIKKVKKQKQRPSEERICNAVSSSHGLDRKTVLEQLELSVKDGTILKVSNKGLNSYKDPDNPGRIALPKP
AGTCCGCA: 0.175
AGCTTTCA: -0.0661
CTCACTCA: -0.193
CCGGCGTC: 0.36
ACGAACGG: 0.224
AGATCCCA: -0.265
GCGCTAGC: 0.255
CGCGGACA: 0.279
CGACCTCA: -0.16
ACATCAAA: -0.203
ATCTCTTA: -0.135
CCTCATTC: -0.185

Block 2
Target: Interferon regulatory factor 7, full length, phosphomimetic (IRF7, Homo sapiens, UniProt Q92985, residues 1-503, S471D/S472D/S475D/S476D/S477D/S483D/S484D/S487D)
Method: protein-binding microarray
Form: double-stranded DNA, one strand shown
Medium: in vitro
Tested at: 2200 nM top
Notes: 60-bp whole probe
With: salmon DNA 0.4 mg/ml
Relative to: random background probes
Direction: higher = stronger binding
Measurement: fitted relative affinity
All sequences stand within: GCCTAGCAC … GTCTTGATTCGCTTGACGCTGCTG
Residues (chain): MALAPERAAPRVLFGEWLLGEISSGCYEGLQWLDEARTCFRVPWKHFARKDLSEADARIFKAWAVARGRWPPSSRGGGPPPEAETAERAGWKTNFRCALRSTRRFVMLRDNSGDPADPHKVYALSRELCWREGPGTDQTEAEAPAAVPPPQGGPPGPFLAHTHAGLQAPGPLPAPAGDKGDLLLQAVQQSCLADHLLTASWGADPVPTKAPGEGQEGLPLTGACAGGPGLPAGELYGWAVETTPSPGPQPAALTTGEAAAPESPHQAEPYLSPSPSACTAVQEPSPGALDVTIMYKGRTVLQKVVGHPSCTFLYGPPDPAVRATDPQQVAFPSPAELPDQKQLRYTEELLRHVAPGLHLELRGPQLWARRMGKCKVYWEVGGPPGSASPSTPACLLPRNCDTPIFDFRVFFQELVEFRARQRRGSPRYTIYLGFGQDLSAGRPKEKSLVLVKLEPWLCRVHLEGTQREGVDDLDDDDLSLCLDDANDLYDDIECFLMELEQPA
GACGGTTCCCTTTTCCCGACGTGCTAG: 2.72 z-score
GACGGTCTTGGTCTCGGGACGTGCTAG: -0.124 z-score
TTAGAACTGGGGTTCCGATTAGTGCTA: 0.192 z-score
GAAGGTTCCGGTTTCGGGACGTGCTAG: 5.56 z-score
TTAGAACTGGGGTTTGGATTAGTGCTA: -0.0692 z-score
TCATGCCTCATCTTGCAGACTGTGCTA: 0.875 z-score
TGAGGACTGCTTCTCCTTTAGTGCTAG: 0.521 z-score
TCACTGCTACCCTCTGAAACTGTGCTA: 1.07 z-score
TTAGAGTTCGGGACTGGATTAGTGCTA: -0.589 z-score
GACGGACTGGGGTAACGGGACGTGCTA: -1.11 z-score
CACGATTTCGGGTTTCGAGACGTGCTA: 5.75 z-score
TTAGGAATGGGTATCGGTTAGTGCTAG: 0.0661 z-score
GACGGCATCGGTTTCGGGACGTGCTAG: 2.97 z-score
TTAGGTTTCCTTATCCTTCAGTGCTAG: 2.43 z-score
TTAGATTTCATTATCGATTAGTGCTAG: 1.09 z-score
GACGGTTCCGGTTTAGGGACGTGCTAG: 3.35 z-score
TTAGGTCACCTACTGCTTTAGTGCTAG: 0.285 z-score
TTTGCTTTCTTTATGCACTCGTGCTAG: 2.87 z-score
GACGGTATCGCTTTCGGGACGTGCTAG: 4.3 z-score
TTAGATATCGGGACTTGATTAGTGCTA: -0.33 z-score
TCACTTCCCAATTGTCTTACTGTGCTA: 3.4 z-score

Block 3
Target: Myc proto-oncogene protein, bHLH-zipper, MAX partner unstated (MYC, Homo sapiens, UniProt P01106, residues 368-449)
UniProt P01106, sequence (368-449, looked up): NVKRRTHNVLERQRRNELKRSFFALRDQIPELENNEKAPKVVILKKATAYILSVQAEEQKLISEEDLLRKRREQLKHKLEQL
Method: protein-binding microarray
Form: double-stranded DNA, one strand shown
Medium: in vitro
Tested at: not given
Notes: k-mer, scored over probes, only values ≥0.25
Direction: higher = stronger binding
Measurement: E-score
CACCCGCC: 0.284
CATGCTAG: 0.338
ACGCTGCC: 0.282
AGTCACGA: 0.304
AGACGTGG: 0.268
ACGAGGGC: 0.364
CAACATGC: 0.369
GCCCACGA: 0.304
GTGCGTCA: 0.258
CCTCGTGA: 0.419
AGCCTCAT: 0.27

Single results of other studies
PhoQ, residues 284 288 289 292 302 303 NLGVHL  fold induction (PhoP, residues 12 14 15 18 19 NYFTV (Escherichia coli, UniProt P23836); Sort-seq, measured: YFP reporter; E. coli; PhoQ-PhoP variant library, with: 10 µM Mg2+; relative to: high Mg2+ state, higher = stronger signaling): 4.59
